Measurements gathered from unrelated publications.
Compare with care: the assays were run in different laboratories. Several values in a cell are separate wells, animals, samples, runs or records. ± marks the error that the study gave.
T1: ssDNA, aptamer; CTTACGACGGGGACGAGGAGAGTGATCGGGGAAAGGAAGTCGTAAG
Sequence of UniProt Q16774 (whole entry, unmodified, looked up): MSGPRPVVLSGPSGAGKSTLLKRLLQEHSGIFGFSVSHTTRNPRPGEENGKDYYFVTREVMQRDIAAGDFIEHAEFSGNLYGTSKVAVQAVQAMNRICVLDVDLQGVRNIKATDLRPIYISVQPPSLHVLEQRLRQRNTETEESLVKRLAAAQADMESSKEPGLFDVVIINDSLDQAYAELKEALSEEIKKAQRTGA
Sequence of UniProt O14744 (whole entry, looked up): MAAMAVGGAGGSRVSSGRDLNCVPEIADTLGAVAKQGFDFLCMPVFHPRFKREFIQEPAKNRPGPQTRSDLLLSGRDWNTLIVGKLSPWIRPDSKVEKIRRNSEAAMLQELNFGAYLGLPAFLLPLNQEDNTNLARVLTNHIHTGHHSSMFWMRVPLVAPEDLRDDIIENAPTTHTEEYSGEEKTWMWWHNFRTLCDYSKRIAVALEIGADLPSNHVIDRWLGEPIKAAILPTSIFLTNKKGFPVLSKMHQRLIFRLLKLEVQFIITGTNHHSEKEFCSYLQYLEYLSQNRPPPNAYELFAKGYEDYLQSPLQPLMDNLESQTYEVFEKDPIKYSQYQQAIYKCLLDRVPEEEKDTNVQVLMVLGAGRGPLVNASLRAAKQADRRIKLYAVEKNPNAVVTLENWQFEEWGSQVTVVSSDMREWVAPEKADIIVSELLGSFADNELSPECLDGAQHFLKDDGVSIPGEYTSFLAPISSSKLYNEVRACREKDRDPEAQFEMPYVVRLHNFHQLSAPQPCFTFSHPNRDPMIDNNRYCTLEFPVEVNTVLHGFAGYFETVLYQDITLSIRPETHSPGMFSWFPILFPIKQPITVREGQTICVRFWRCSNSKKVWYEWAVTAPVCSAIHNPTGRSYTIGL
Sequence of UniProt P21917 (whole entry, looked up): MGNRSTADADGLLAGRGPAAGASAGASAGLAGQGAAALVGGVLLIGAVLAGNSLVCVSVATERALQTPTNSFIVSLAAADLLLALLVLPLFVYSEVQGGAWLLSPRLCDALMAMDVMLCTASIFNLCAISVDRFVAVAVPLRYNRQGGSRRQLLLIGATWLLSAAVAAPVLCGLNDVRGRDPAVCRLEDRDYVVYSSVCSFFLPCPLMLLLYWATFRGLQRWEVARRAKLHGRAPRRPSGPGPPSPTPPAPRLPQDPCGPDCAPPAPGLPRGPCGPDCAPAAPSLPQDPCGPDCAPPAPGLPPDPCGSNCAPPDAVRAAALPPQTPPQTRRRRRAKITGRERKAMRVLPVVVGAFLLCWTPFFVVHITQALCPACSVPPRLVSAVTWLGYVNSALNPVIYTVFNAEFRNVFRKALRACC
Sequence of UniProt P11388 (whole entry, looked up): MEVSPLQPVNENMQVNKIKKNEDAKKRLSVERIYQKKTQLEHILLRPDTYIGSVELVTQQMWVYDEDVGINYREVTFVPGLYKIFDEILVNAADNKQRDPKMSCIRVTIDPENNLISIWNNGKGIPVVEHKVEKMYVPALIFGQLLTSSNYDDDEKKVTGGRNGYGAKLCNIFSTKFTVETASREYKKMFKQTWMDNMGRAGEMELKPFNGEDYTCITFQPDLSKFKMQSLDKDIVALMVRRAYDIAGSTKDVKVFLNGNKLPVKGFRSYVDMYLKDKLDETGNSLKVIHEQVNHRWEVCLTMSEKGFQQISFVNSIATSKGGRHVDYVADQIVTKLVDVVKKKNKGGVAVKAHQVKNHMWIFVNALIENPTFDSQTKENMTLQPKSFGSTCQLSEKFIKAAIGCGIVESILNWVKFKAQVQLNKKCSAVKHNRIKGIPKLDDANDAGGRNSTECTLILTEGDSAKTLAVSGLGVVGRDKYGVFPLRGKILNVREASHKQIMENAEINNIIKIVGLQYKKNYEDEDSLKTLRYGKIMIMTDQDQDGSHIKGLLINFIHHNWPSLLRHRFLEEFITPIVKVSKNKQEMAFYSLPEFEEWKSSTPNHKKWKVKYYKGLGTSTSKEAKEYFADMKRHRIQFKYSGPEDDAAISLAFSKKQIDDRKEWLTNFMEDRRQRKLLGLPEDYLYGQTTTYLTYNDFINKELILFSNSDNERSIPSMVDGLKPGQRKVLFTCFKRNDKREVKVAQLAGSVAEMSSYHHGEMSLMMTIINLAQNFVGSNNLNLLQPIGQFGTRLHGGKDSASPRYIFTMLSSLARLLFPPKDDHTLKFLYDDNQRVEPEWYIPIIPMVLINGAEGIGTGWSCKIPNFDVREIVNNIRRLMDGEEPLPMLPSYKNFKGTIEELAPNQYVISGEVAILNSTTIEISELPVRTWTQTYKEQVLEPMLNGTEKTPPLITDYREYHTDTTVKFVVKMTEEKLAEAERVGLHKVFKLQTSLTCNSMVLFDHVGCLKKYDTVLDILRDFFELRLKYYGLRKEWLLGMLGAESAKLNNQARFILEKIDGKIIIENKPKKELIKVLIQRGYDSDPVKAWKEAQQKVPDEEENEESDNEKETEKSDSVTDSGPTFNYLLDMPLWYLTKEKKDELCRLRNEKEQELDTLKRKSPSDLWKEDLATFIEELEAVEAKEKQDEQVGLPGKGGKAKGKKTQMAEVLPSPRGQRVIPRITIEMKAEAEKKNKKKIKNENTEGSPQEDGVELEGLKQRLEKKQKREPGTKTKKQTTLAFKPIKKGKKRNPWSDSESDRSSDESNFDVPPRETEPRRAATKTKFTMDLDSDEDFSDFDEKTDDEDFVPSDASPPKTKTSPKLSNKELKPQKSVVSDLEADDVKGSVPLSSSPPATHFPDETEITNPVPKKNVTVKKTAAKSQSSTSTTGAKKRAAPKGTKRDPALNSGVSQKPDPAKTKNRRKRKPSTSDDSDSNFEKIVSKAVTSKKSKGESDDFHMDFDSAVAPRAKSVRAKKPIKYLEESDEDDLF
Sequence of UniProt Q96NY8 (whole entry, looked up): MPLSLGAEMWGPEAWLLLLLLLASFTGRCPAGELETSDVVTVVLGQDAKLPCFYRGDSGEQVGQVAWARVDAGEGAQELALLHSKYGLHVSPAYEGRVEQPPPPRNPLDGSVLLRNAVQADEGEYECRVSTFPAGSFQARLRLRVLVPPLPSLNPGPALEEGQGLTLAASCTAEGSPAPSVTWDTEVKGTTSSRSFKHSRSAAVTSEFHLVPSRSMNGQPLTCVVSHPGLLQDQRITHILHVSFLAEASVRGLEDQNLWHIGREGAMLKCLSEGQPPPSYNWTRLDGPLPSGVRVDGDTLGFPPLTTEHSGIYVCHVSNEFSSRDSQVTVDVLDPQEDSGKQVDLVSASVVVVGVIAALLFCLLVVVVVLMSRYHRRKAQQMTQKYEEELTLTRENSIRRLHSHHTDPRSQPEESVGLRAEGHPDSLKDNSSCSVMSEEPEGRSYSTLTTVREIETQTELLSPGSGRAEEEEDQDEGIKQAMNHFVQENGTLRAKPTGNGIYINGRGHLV
Sequence of UniProt Q9UH17 (whole entry, looked up): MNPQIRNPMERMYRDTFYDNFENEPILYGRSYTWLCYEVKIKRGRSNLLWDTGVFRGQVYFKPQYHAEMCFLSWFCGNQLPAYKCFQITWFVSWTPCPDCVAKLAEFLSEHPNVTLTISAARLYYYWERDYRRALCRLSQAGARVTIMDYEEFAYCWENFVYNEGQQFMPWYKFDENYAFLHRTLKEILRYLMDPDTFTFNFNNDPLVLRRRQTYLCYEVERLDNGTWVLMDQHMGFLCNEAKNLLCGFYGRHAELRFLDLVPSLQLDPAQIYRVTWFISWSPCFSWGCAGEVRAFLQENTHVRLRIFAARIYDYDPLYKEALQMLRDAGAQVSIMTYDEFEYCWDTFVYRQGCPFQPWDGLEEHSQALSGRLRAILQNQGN
Sequence of UniProt Q6ZNE5 (whole entry, looked up): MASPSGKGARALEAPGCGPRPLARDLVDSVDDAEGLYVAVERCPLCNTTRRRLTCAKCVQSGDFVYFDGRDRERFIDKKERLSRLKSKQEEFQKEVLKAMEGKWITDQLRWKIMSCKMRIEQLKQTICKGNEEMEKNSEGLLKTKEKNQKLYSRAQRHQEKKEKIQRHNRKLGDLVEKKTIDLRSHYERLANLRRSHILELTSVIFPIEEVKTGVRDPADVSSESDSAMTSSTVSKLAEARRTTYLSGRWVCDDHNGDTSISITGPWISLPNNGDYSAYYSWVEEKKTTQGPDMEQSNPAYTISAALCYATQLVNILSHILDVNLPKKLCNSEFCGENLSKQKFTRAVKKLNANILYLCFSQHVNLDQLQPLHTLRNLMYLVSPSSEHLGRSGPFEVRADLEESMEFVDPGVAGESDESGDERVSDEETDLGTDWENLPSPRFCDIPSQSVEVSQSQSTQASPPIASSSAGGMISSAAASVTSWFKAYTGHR
Sequence of UniProt P22736 (whole entry, looked up): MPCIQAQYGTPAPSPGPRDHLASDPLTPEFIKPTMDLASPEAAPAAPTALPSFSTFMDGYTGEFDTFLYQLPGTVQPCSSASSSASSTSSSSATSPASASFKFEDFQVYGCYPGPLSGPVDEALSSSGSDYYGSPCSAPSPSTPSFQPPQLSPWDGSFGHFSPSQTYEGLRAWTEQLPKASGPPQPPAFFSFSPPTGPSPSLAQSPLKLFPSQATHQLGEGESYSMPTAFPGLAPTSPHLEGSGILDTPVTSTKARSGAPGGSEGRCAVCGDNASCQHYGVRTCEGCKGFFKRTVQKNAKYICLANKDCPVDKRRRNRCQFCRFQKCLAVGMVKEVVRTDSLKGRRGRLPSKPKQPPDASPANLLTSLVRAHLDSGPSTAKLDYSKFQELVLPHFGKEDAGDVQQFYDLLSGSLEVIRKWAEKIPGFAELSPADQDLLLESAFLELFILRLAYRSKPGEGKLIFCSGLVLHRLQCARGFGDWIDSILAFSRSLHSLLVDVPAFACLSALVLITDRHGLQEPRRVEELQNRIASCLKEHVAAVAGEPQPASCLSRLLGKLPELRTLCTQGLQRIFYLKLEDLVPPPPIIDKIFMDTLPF
Sequence of UniProt Q07011 (whole entry, looked up): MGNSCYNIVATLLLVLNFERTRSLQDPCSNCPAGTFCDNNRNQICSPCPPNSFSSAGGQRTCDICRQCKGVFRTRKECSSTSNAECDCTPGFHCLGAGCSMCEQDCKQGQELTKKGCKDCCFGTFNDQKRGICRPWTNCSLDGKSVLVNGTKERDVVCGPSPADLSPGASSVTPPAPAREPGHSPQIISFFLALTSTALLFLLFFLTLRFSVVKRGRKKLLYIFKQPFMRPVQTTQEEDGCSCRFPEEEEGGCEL

`Nc1ncnc2c1ncn2[C@@H]1O[C@H](COP(=O)(O)OP(=O)(O)O)[C@@H](O)[C@H]1O` has a Kd of 18.9 µM (T1, ssDNA, aptamer; ITC).
`O=C(O)c1ccc(Nc2ncc3c(n2)-c2ccc(Cl)cc2C(c2c(F)cccc2F)=NC3)cc1` has a remaining activity of 104% (human NLK; inhibitor, biochemical kinase; 1 µM).
`CCCN1C(=O)COc2ccc(NS(=O)(=O)c3c(C(C)C)cc(C(C)C)cc3C(C)C)cc21`: ATG14L-Beclin1 interaction “active” (Beclin 1-associated autophagy-related key regulator, with Beclin 1 (ATG14, Homo sapiens, UniProt Q6ZNE5); NanoBRET; 100 µM; relative to: DMSO).
With `O=C(CN1CCO[C@H](COc2cccc(Cl)c2)C1)N1CCc2ccccc21` the inhibition was 72.9% (D(4) dopamine receptor (DRD4, Homo sapiens, UniProt P21917); radioligand binding; concentration not given, added: [3H]N-methylspiperone).
Under “dissociation rate constant”, `CC(=O)N[C@@H]1[C@@H](O[C@H]2O[C@H](CO)[C@H](O)[C@H](O)[C@H]2O)[C@@H](O)[C@@H](CO)O[C@@H]1O` is recorded as 0.000527 s⁻¹ (Frizzled-8 (Xenopus laevis, UniProt Q91719); binding, biolayer interferometry; 25 °C, added: immobilized biotinylated carbohydrate).
For `CCC1(O)CCCN(C(=O)c2ccc(-c3ccc(F)c(NC(=O)CCl)c3)cc2)C1` (stereo not shown), the protein adduct was 65% (DNA dC->dU-editing enzyme APOBEC-3B, C-terminal domain (Homo sapiens, UniProt Q9UH17); covalent modifier, intact protein mass spectrometry, measured: adduct +25721 Da; 500 µM, 3 h, 20-fold molar excess).
For `C#CCCOC(=O)[C@]1(C)C=C(C(=O)OC(C)(C)C)C(=O)CC1`, the fraction bound was 0.788 (Mitogen-activated protein kinase 8 (MAPK8, Homo sapiens, UniProt P45983); D-peptide binding, inhibitor, FP peptide displacement; 1.562 µM; lower is stronger displacement).
For `Cc1nc(CSc2nc(SCc3ccc(C(C)C)cc3)nc(=O)[nH]2)cs1`, “mean linear DNA” read 0% (DNA topoisomerase 2-alpha (TOP2A, Homo sapiens, UniProt P11388); DNA cleavage; 31.25 µM).
For `Nc1nc2c(ncn2[C@@H]2O[C@H](COP(=O)(O)O)[C@@H](O)[C@H]2O)c(=O)[nH]1`, the reaction rate was -1.11 s⁻¹ and -1.43 s⁻¹ and -0.974 s⁻¹ (GUK1 (Homo sapiens, UniProt Q16774, Y53A); enzyme activity, NADH-coupled; 62.5 µM).
For `CCCC[C@@H]1NC(=O)[C@H](Cc2ccc(O)cc2)NC(=O)[C@H](C)N(C)C(=O)[C@H](CC(=O)O)NC(=O)[C@H](C)NC(=O)[C@H](Cc2ccccc2)NC(=O)[C@@H]2CSCCC(=O)N3CN(CN(C3)C(=O)CCSC[C@H](NC(C)=O)C(=O)N[C@@H](CC(C)(C)C)C(=O)N3CCC[C@H]3C(=O)N[C@@H](CCC(=O)O)C(=O)N[C@H](CCCCNC(=O)CCc3cn(CCOCCOCCOCCN(CCOCCOCCOCCC(=O)N[C@H]4CSCCC(=O)N5CN6CN(C5)C(=O)CCSC[C@H](NC(=O)[C@@H](CC(=O)O)NC(=O)[C@H](Cc5cccc7ccccc57)NC(=O)[C@@H]5CCCN5C4=O)C(=O)N[C@@H](CCSC)C(=O)N[C@@H](CCCCNC(=N)N)C(=O)N[C@@H](CC(=O)O)C(=O)N[C@@H](Cc4c[nH]c5ccccc45)C(=O)N[C@@H](CO)C(=O)N[C@@H]([C@@H](C)O)C(=O)N4CCC[C@H]4C(=O)N4C[C@H](O)C[C@H]4C(=O)N[C@@H](Cc4c[nH]c5ccccc45)C(=O)N[C@H](C(N)=O)CSCCC6=O)CCOCCOCCOCCn4cc(CCC(=O)NCCCC[C@H]5NC(=O)[C@H](CCC(=O)O)NC(=O)[C@@H]6CCCN6C(=O)[C@H](CC(C)(C)C)NC(=O)[C@@H](NC(C)=O)CSCCC(=O)N6CN7CN(C6)C(=O)CCSC[C@H](NC(=O)[C@H](Cc6ccc(O)cc6)NC(=O)[C@@H]6CCCN6C5=O)C(=O)N[C@@H](Cc5ccccc5)C(=O)N[C@@H](C)C(=O)N[C@@H](CC(=O)O)C(=O)N(C)[C@@H](C)C(=O)N[C@@H](Cc5ccc(O)cc5)C(=O)N[C@@H](CCCC)C(=O)N[C@H](C(N)=O)CSCCC7=O)nn4)nn3)C(=O)N3CCC[C@H]3C(=O)N[C@@H](Cc3ccc(O)cc3)C(=O)N2)C(=O)CCSC[C@@H](C(N)=O)NC1=O`, the Emax was 76 fold (Tumor necrosis factor receptor superfamily member 9/Nectin-4 (Homo sapiens, UniProt Q07011+Q96NY8); reporter gene, agonist; HT-1376 coculture with reporter cells; relative to: background).
With `Cc1ncsc1-c1ccc([C@H](CC(=O)NCCOCCOCCOCCOCCOCCC(=O)N2CCC(Nc3cc(C(=O)NC[C@H](O)CN4CCc5ccccc5C4)ncn3)CC2)NC(=O)[C@@H]2C[C@@H](O)CN2C(=O)[C@@H](NC(=O)C2(F)CC2)C(C)(C)C)cc1` the Dmax was > 85% (Protein arginine N-methyltransferase 5 (PRMT5, Homo sapiens, UniProt O14744); degrader, Western blot; MDA-MB-468; 72 h).
For `Cc1cccc(/C=C/C(=O)Nc2cc(-c3ccnc(N4CCOCC4)c3)ccn2)c1`, the binding response was 36.4 RU (Nuclear receptor subfamily 4 group A member 1 (NR4A1, Homo sapiens, UniProt P22736); SPR; 10.0 µM).
The Kii of `COc1ccc(Cc2nnc(NS(=O)(=O)c3cccc4ccccc34)s2)cc1` is reported as 96 ± 2 µM (Glutathione hydrolase 1 proenzyme, without transmembrane domain (Homo sapiens, UniProt P19440); GSH hydrolysis, uncompetitive inhibitor; 37 °C, binds gamma-glutamyl enzyme, added: GSH 5-20 µM).

For quick reference, copied from above:
`CCCN1C(=O)COc2ccc(NS(=O)(=O)c3c(C(C)C)cc(C(C)C)cc3C(C)C)cc21`: ATG14L-Beclin1 interaction “active” (Beclin 1-associated autophagy-related key regulator, with Beclin 1 (ATG14, Homo sapiens, UniProt Q6ZNE5); NanoBRET; 100 µM; relative to: DMSO).
